Assay results collected from several papers.
Sequence of UniProt Q9Y2K6 (whole entry, looked up): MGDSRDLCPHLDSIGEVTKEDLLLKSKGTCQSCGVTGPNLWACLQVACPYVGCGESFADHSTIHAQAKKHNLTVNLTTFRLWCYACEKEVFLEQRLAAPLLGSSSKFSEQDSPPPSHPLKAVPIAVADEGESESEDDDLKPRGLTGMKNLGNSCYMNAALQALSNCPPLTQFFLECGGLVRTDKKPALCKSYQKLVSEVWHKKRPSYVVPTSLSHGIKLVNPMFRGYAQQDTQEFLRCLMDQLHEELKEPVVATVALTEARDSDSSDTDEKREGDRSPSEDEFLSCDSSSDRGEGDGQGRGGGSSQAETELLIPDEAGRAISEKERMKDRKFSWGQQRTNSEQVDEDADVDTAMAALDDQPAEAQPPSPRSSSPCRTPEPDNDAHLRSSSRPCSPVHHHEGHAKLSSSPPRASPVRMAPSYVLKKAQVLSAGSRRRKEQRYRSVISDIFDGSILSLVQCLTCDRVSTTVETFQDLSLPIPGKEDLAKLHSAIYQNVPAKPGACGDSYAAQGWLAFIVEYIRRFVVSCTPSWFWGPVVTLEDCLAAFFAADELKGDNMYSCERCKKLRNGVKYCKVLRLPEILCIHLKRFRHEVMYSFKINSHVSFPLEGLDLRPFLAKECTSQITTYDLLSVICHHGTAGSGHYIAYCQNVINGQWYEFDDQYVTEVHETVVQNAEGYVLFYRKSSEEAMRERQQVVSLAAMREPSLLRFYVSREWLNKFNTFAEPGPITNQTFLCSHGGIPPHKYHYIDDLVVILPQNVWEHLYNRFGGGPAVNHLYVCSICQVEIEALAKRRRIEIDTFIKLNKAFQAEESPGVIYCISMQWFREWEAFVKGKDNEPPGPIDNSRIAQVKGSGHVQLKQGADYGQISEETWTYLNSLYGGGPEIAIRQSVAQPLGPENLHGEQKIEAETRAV

`COc1ccnc(C(=O)N[C@@H](CO)C(=O)O)c1OCOC(=O)C(C)C` has an EC50 of greater than 8.7 µg/mL (Daphnia magna; immobilisation, semi-static water exposure; 48 h).
`COc1ccc(NC(=O)N2CCCCN3C[C@H](c4ccc(C#Cc5ccccc5)cc4)[C@@H]3C2)cc1` gave an EC50 of 36 nM (Cryptosporidium parvum; parasite growth, high-content microscopy; Iowa (Bunch Grass Farm); 1% FBS).
`CCc1nc(-c2cnc3ccc(-c4ccc(C#N)cc4)cc3c2)no1` has an EC50 of greater than 200000 nM (Enterovirus D68; viral cytopathic effect; RD, STL-2014-12).
With `COc1ccnc(C(=O)NC(CO)C(=O)O)c1O` (racemic) the EC50 was greater than 10 µg/mL (Daphnia magna; immobilisation, semi-static water exposure; 48 h).
For `O=C(O)CCc1nccs1`, the Kd was 439000 nM (Ubiquitin carboxyl-terminal hydrolase 20, ZnF-UBD domain (USP20, Homo sapiens, UniProt Q9Y2K6)).
With `C=C(NC(=O)c1nccc(OC)c1O)C(=O)O[C@@H](C)[C@H](OC(=O)C(C)C)[C@@H](Cc1ccccc1)C(=O)O` the EC50 was 0.011 µg/mL (Daphnia magna; immobilisation, semi-static water exposure; 48 h).
`COc1ccc(NC(=O)N2CCCCN3[C@H](CN(C)C)[C@H](c4ccc(C#Cc5ccccc5)cc4)[C@@H]3C2)cc1` gave an EC50 of less than 73 nM (Cryptosporidium parvum; parasite growth, high-content microscopy; Iowa (Bunch Grass Farm); 10% FBS).
With `CCOC(=O)c1cnc2ccc(-c3ccc(C(N)=O)cc3)cc2c1` the EC50 was greater than 200000 nM (Enterovirus D68; viral cytopathic effect; RD, STL-2014-12).
`COc1ccc(NC(=O)N2CCCCN3[C@H](CN(C)S(C)(=O)=O)[C@H](c4ccc(C#Cc5ccccc5)cc4)[C@@H]3C2)cc1` gave an EC50 of 6 nM (Cryptosporidium parvum; parasite growth, high-content microscopy; Iowa (Bunch Grass Farm); 1% FBS).
For `Cc1cc(OC(C)C)ccc1C(=O)C(C)(C)NC(=O)c1sccc1C`, the EC50 was 0.45 µg/mL (Cercospora; mycelial growth; PSA medium; 20 °C, suspension concentrate 400 g/L).
With `[N-]=[N+]=N[C@]1(CO)O[C@@H](n2ccc(N)nc2=O)[C@@H](F)[C@@H]1O` the EC50 was 50 nM (dengue virus 2; viral replication, high-content imaging; A549, New Guinea C).
With `Cc1ccc(N(c2ccc(NC(=O)CN(C)c3ccccc3N3CCCC3=O)cc2)C(C)C)cc1` the EC50 was 7.2 nM (Plasmodium falciparum; parasite growth, SYBR Green; 3D7; 72 h).
The EC50 of `CC(C)C(=O)O[C@H]1[C@H](C)OC(=O)[C@@H]1Cc1ccccc1` is reported as greater than 8.5 µg/mL (Daphnia magna; immobilisation, semi-static water exposure; 48 h).
The EC50 of `CC(C)(C)c1ccc(-c2ccc3ncc(-c4noc(C(F)(F)F)n4)cc3c2)cc1` is reported as greater than 200000 nM (Enterovirus D68; viral cytopathic effect; RD, STL-2014-12).
`CCCCCCCC(=O)O` — result for “z-scored log2 fold change”: 0.157 (binding, equilibrium dialysis LC-MS; 5 µM, thermostabilized A2AR-BRIL construct; relative to: no-protein control, direction not given).
`Nc1ccn(C[C@@H](CO)OCP(=O)(O)O)c(=O)n1` has an EC50 of 2000 nM (human alphaherpesvirus 1; viral replication; HEL, KOS).
The EC50 of `C[C@H]1C=C(Cc2ccccc2)C(=O)O1` is reported as greater than 10 µg/mL (Daphnia magna; immobilisation, semi-static water exposure; 48 h).
For `NC(=O)C[C@H](N)C(=O)O`, “z-scored log2 fold change” read 0.224 (binding, equilibrium dialysis LC-MS; 5 µM, thermostabilized A2AR-BRIL construct; relative to: no-protein control, direction not given).

A few entries again:
With `Cc1ccc(N(c2ccc(NC(=O)CN(C)c3ccccc3N3CCCC3=O)cc2)C(C)C)cc1` the EC50 was 7.2 nM (Plasmodium falciparum; parasite growth, SYBR Green; 3D7; 72 h).
The EC50 of `CC(C)C(=O)O[C@H]1[C@H](C)OC(=O)[C@@H]1Cc1ccccc1` is reported as greater than 8.5 µg/mL (Daphnia magna; immobilisation, semi-static water exposure; 48 h).
